Assay results collected from several papers.
Parts stem from different laboratories: compare values within a part only.

Sample 1
Target: Fragile X messenger ribonucleoprotein 1, C-terminal low-complexity region (Fmr1, Mus musculus, UniProt P35922)
Technique: RNA Bind-n-Seq
Form: RNA
Matrix: in vitro
Concentration: 200 nM
Setting: whole 134-nt RNA, ends assumed
With: 150 mM LiCl
Relative to: input library
Direction: higher = stronger binding
Library: 7-deaza-guanosine replaces G
With `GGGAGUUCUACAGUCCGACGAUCUGGCCCUGGUGGCAUGCGGGGAGGAAGAGGUGGCCUCAUGGAUCGUGGUGGUCCCGGUGGAAUGUUCAGAGGUGGCCUUGGUGGAGACAGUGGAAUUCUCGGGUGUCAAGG` the log2 enrichment was 0.538.
`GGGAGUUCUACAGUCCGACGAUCAGUCCUGUGCUACACAUCGUAUGUACCGAAUCGGGAAAGGGAAAGGGUUUUUUUGGGAAAGUAUUAUGUUACGCCGUUCGGAUCUGCACUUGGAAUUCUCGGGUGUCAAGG` has a log2 enrichment of -1.78.
With `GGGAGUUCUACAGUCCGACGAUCUAACUUUAGAGGAGGAUCUGAUGGAUAUGGCAGUGGACGUGGAUUUGGGGGUGGCUAUAAUGGGUAUGGAGGAGGACCUGGAGGUGGCAAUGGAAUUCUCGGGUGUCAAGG` the log2 enrichment was 0.435.
For `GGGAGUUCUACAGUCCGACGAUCCUGUGCUACACAUCGUAUGUACCGAAUCGGUUUUUUUGGGGUUUUUUUGGGUUUUUUUGGGAAAGUAUUAUGUUACGCCGUUCGGAUCUGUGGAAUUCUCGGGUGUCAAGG`, the log2 enrichment was 0.728.
For `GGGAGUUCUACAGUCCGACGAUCCAAGUCCUGUGCUACACAUCGUAUGUACCGAAUCGGUUUUGGUUUUGGGGUUUUGGAAAGUAUUAUGUUACGCCGUUCGGAUCUGCACUUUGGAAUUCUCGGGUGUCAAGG`, the log2 enrichment was -1.94.
`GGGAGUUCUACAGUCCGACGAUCCACAGACAACACGCACCCACAAAAACACAGAGGGAAGGGGUUGGGAUGGGGACAGGGUGCACAGCAGGGCGGGGUAGGACCCCAGCCCCUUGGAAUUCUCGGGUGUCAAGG` has a log2 enrichment of 0.197.

Sample 2
Target: Max-binding protein MNT, bHLH-zipper, MAX partner unstated (MNT, Homo sapiens, UniProt Q99583, residues 220-300)
Technique: protein-binding microarray
Form: double-stranded DNA, one strand shown
Matrix: in vitro
Concentration: not given
Setting: k-mer, scored over probes, only values ≥0.25
Direction: higher = stronger binding
Residues (chain): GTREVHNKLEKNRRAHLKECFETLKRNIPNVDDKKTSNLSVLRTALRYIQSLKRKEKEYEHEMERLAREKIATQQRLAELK
The E-score of `CGTGGAAC` is reported as 0.27.
With `ACAGCGTG` the E-score was 0.427.
With `CCCCACAC` the E-score was 0.282.
`CGCACACC` gave an E-score of 0.294.
For `AACCATGC`, the E-score was 0.402.
`GGAGGGGA` gave an E-score of 0.288.
`CGTGGTTA` has an E-score of 0.318.
`AATCATGC` has an E-score of 0.286.
`GCATGTTA` has an E-score of 0.372.
For `GGCATGCA`, the E-score was 0.344.
`GCATGTCC` has an E-score of 0.357.

Sample 3
Target: Centromere-binding protein 1, full length, His-tagged (CBF1, Saccharomyces cerevisiae, UniProt P17106, residues 1-351)
Chain of UniProt P17106 (whole entry, looked up): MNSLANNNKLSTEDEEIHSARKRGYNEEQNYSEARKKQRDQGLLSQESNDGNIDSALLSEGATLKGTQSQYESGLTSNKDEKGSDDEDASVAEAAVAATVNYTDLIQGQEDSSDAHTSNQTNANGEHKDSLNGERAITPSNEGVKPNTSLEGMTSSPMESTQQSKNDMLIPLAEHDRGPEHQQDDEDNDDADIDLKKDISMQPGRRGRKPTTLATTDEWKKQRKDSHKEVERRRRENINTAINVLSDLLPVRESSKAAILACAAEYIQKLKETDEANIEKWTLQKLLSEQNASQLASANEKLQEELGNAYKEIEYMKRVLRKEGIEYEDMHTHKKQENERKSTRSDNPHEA
Technique: competition protein-binding microarray
Form: double-stranded DNA, one strand shown
Matrix: in vitro
Concentration: 2 µM
Setting: whole 60-bp probe, lowest competitor level
With: Pho4 competitor, 0.05 µM
Direction: higher = stronger binding
`AACCTAGAGCTTCGTCACGGGGGCCTTGTCCGACTTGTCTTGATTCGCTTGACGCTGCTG` has a fluorescence intensity of 263 a.u.
With `CAATTCTTCGGGCGTCACATGACAAATATATAGGGAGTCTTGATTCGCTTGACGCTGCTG` the fluorescence intensity was 3000 a.u.
For `CATACCCAACCTTGGCAGGTGGGTGAAGATATTTGTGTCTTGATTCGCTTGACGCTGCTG`, the fluorescence intensity was 73.1 a.u.
The fluorescence intensity of `CGGAATATGTTAGACCATGTGGTACCGTCGTTTTGGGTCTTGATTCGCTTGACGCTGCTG` is reported as 154 a.u.
For `AAAGCCAGGCCGAGTCACGTCAGTTGCTGACCCTGGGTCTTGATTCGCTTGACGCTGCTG`, the fluorescence intensity was 81.2 a.u.
`CATACCCAACCTTGAGACGTGGGTGAAGATATTTGTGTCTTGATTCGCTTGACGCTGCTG` gave a fluorescence intensity of 73.6 a.u.
The fluorescence intensity of `CTAACGAAGGTTTGAGAGGTGGGTGACAAGCCAAGTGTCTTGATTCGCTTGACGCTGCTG` is reported as 55.8 a.u.
`CGATATAGCACCGACCATGTGGGCAAATTCGTAATAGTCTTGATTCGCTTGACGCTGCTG` has a fluorescence intensity of 103 a.u.
`CTTTCCCGATCTTAACACGTGTTTTTAGCACATTTGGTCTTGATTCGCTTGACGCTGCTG` has a fluorescence intensity of 1830 a.u.

Sample 4
Target: RING finger protein unkempt homolog, zinc fingers 1-6, GST-SBP tag (UNK, Homo sapiens, UniProt Q9C0B0, residues 30-357)
Technique: RNA Bind-n-Seq
Form: RNA
Matrix: in vitro
Concentration: not given
Setting: RNA with constant flanks, human-mouse chimeric sites, ends assumed
Relative to: input RNA pool
Direction: higher = stronger binding
Residues (chain): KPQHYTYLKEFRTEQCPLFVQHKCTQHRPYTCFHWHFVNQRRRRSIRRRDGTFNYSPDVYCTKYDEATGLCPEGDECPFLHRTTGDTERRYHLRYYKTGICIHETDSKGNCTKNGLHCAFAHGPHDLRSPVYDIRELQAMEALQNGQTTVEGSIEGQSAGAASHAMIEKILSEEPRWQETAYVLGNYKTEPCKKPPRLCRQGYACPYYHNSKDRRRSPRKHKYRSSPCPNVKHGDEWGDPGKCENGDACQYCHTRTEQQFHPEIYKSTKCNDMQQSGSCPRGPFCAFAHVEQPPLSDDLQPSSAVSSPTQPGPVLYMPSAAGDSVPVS
With `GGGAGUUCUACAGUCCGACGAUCUCGGAUGCUGUGCUGGGUCACUUUUCAUAUCCUGAUCCUUCACAGUGGACAGAUGAAGAACUGGGAAUCCCUCCUGAUGACGAGGACUGACACUGUAGACUCAGCCUACGAGUAGGAGCACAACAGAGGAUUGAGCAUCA` the bound/input enrichment was 0.316 ratio.
For `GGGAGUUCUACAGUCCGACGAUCCAGGGCAUUAUUUCUCGAGCUGUUAAACACCUGUUCAAGAGUAUUGAUGAGAAAAAGACCUCAGCGAUUAAAAACGGGCUGCCCCCUCCUGAAUUCAAAGUGAAUGCCCAGUUCCUAGAGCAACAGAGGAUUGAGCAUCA`, the bound/input enrichment was 0.287 ratio.
With `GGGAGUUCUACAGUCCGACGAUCUUAAUCCCCUUUACUGCUCCCCCACUUCUCAUGGUAAUAACAAAGUCUUAUAUUCCCAUAUUAGCUUUCACUCAGAUGGCUUAUGGAGCCGGUUUCCUAGCUUUCUUGGGAGGGAUCAGACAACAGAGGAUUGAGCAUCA` the bound/input enrichment was 0.326 ratio.
With `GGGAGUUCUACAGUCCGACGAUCCUGUGACCACAAGAUCCUACCUGAGUGUUCAGAUGGGUUGACUCCCUCCCCUUCCCUGAACCCCCCCCCACUGCCCCCCCAUCCCCCAGUGUCGGCUGAGAUGUUGCCUCUGCACGGUUCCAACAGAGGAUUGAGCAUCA` the bound/input enrichment was 1.32 ratio.
`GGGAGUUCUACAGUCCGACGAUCAACAGAUUGUCUUUAAGCAUUCCAAGCGAGAAUGCUGGGGUGAUCAUUGUUGCCCAUAUAUAGUAAUACUGAGCUUUUAAUUAAUUGCAUGUUACAUCUUUCCUUCACUCCAGAAUUGUUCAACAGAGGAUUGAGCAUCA` has a bound/input enrichment of 2.34 ratio.
With `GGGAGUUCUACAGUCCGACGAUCCGCGUCCUCUCGCUGCUGCGGAGCCCGAGCUGGGAACCAUUCCGGGACUGGUACCCUGCACACAGCCGCCUCUUCGACCAGGCCUUCGGGGUGCCCCGGUUGCCCGAUGAGUGGUCGCAGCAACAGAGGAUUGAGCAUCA` the bound/input enrichment was 0.088 ratio.
`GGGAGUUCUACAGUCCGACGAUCCUGAAAAACACAGAUAUCAAAGUUGUUGACUUUGGAAGUGCAACGUAUGAUGAUGAACAUCAUAGUACUUUGGUGUCCACAAGGCACUACAGAGCUCCCGAGGUCAUUUUGGCUUUAGGUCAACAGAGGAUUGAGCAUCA` has a bound/input enrichment of 0.216 ratio.

Sample 5
Target: Histone acetyltransferase KAT6A, winged helix 2, GST fusion (KAT6A, Homo sapiens, UniProt Q92794, residues 85-181)
Technique: protein binding microarray
Form: double-stranded DNA, one strand shown
Matrix: in vitro
Concentration: not given
Setting: 8-mer, flanks averaged, mean of 2 arrays, mostly near background
Relative to: not given
Direction: higher = stronger binding
Target sequence (chain): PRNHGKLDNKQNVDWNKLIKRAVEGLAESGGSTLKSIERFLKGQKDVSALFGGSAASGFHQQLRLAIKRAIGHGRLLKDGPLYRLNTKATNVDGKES
`GACCCTAA` gave an E-score of 0.0665.
`AGTGTCGG` gave an E-score of 0.0159.
The E-score of `GCGTGTGA` is reported as -0.0238.
The E-score of `CAGGAAGG` is reported as -0.102.
`CTGGTAGA` has an E-score of 0.00209.
`AATGTGAG` gave an E-score of -0.0872.
`ACATTATA` gave an E-score of -0.122.
The E-score of `AGAACTTG` is reported as 0.0503.
For `CCGGCAGG`, the E-score was 0.2.
For `GCCAGGAC`, the E-score was 0.142.
`AGGTCATA` has an E-score of -0.141.
`AAATCGTC` gave an E-score of -0.0818.
For `CCCTGCAA`, the E-score was 0.0148.
For `CGCGATGA`, the E-score was 0.0992.
`AGTCAGTG` has an E-score of 0.00692.
With `CCGCCTGA` the E-score was 0.0834.
`GTAGAAAC` has an E-score of 0.032.

Sample 6
Target: Sal-like protein 4, full length isoform B (SALL4, Homo sapiens, UniProt Q9UJQ4-2, residues 1-616)
Technique: universal PBM
Form: double-stranded DNA, one strand shown
Matrix: in vitro
Concentration: not given
Setting: 8-mer, flanks averaged, mean of replicates
Direction: higher = stronger binding
Construct (chain): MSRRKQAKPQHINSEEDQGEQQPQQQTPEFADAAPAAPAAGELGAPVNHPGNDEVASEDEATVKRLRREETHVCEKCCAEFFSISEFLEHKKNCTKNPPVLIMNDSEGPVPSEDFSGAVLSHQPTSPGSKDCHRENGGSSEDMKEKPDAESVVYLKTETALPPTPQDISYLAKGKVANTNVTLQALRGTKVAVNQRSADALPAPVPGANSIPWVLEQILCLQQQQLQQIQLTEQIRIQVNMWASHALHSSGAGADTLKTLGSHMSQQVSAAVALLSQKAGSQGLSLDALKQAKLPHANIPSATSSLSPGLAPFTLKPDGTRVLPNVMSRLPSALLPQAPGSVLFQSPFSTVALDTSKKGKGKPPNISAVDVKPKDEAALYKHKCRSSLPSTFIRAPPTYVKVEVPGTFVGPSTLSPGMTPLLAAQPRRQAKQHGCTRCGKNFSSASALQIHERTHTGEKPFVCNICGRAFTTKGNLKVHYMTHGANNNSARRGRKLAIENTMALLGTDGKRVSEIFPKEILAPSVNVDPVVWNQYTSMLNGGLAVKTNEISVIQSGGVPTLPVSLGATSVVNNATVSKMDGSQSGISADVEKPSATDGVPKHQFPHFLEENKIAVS
With `CACTTCTA` the E-score was 0.047.
`AACTACGG` gave an E-score of -0.053.
For `GCGTGTCC`, the E-score was -0.274.
`CGTACAAC` gave an E-score of 0.033.
For `CGGAAAAC`, the E-score was -0.0354.
`GCCAGTTA` has an E-score of 0.019.
The E-score of `TCTTTACA` is reported as 0.13.
`GTCCTGCA` has an E-score of -0.128.
The E-score of `CTCTTTGC` is reported as 0.0338.
`AACGGGAA` gave an E-score of 0.142.
The E-score of `GCGGCGGA` is reported as -0.422.
The E-score of `ACATGAAG` is reported as 0.163.
`GCTCCCTA` has an E-score of -0.0909.
With `GAACAACC` the E-score was 0.0845.
`AACTCTGT` gave an E-score of -0.00851.

Sample 7
Target: Interferon regulatory factor 5, full length, phosphomimetic (IRF5, Homo sapiens, UniProt Q13568-2, residues 1-514, S451D/S453D/S456D/S462D)
Technique: protein-binding microarray
Form: double-stranded DNA, one strand shown
Matrix: in vitro
Concentration: 940 nM top
Setting: 60-bp whole probe
With: salmon DNA 0.4 mg/ml
Relative to: random background probes
Direction: higher = stronger binding
Shared flanks, not repeated: GCCTAGCAC … GTCTTGATTCGCTTGACGCTGCTG
Under “fitted relative affinity”, `GGCGATCTCAGACTGGAGACGTGCTAG` is recorded as -0.49 z-score.
`GACGGTATCGGGTTTCGGAACGTGCTA` — result for “fitted relative affinity”: 5.92 z-score.
For `TTAGATATCAGTTTCAATTAGTGCTAG`, “fitted relative affinity” read 2.83 z-score.
`GACGCTCTCCTACTGCTGACGTGCTAG`: “fitted relative affinity” 0.237 z-score.
`TTAGATTGCAGTTTCGATTAGTGCTAG` — result for “fitted relative affinity”: 7.18 z-score.
`TTAGAACTGAGACTGGATGAGTGCTAG` — result for “fitted relative affinity”: -0.155 z-score.
For `GAAGGACTGGGTCTCGGGACGTGCTAG`, “fitted relative affinity” read -0.323 z-score.
`CCCAATTCTCTTTTCACTTTGTGCTAG` — result for “fitted relative affinity”: 2.49 z-score.
`TTAAATATCAGTATCGATTAGTGCTAG`: “fitted relative affinity” 5.63 z-score.
